Measurements pooled from the literature.
Compare with care: the assays were run in different laboratories. ± gives the spread as reported.

SMILES	target or system	test	system	setting	scale	endpoint	value
CCCC[C@H](NC(=O)CNC(=O)CNC(=O)CN1CCN(CC(=O)O)CCN(CC(=O)O)CC1)C(=O)N[C@H]1CC(=O)NCCCC[C@@H](C(N)=O)NC(=O)[C@H](Cc2c[nH]c3ccccc23)NC(=O)[C@H](CCCNC(=N)N)NC(=O)[C@@H](Cc2ccccc2)NC(=O)[C@H](Cc2c[nH]cn2)NC1=O [copper-64 labelled]	–	–	C57 mouse B16/F1 melanoma, stomach	4 h	–	tissue uptake	1.02 ± 0.17 %ID/g
CCCC[C@H](NC(=O)CNC(=O)CNC(=O)CN1CCN(CC(=O)O)CCN(CC(=O)O)CCN(CC(=O)O)CC1)C(=O)N[C@H]1CC(=O)NCCCC[C@@H](C(N)=O)NC(=O)[C@H](Cc2c[nH]c3ccccc23)NC(=O)[C@H](CCCNC(=N)N)NC(=O)[C@@H](Cc2ccccc2)NC(=O)[C@H](Cc2c[nH]cn2)NC1=O [gallium-67 labelled]	–	–	female C57 mice, B16/F1 melanoma, stomach	intravenous, 0.037 MBq, 4 h	–	tissue uptake	1.26 ± 0.11 %ID/g
CCN(CC)c1ccc2c(-c3ccccc3C(=O)OCCOCCOCC[18F])c3ccc(=[N+](CC)CC)cc-3oc2c1	–	–	rat, skin	60 min	–	tissue uptake	0.24 ± 0.03 %ID/g
CCCC[C@@H]1NC(=O)[C@@H](NC(=O)[C@H](CCC(=O)O)NC(=O)CNC(=O)CN2CCN(CC(=O)O)CCN(CC(=O)O)CCN(CC(=O)O)CC2)CCCCNC(=O)C[C@@H](C(N)=O)NC(=O)[C@H](C(C)C)NC(=O)[C@@H]2CCCN2C(=O)[C@H](CCCNC(=N)N)NC(=O)CNC(=O)[C@H](Cc2c[nH]c3ccccc23)NC(=O)[C@H](CCCNC(=N)N)NC(=O)[C@@H](Cc2ccccc2)NC(=O)[C@H](Cc2c[nH]cn2)NC(=O)[C@H](CCC(=O)O)NC1=O [gallium-67 labelled]	–	–	C57 mice with B16/F1 melanoma, lung	intravenous, 24 h	–	tissue uptake	0.1 ± 0.06 %ID/g
[64Cu+2].c1ccc(CNCc2ccc(CN3CCCN4CCNCCCN(CC4)CC3)cc2)nc1	CXCR4	–	NOD/SCID mouse, U87 and U87-stb-CXCR4 xenografts, kidney	iv, 30 min, ex vivo	–	tissue uptake	34 ± 5.69 %ID/g
CC(C)[C@H](NC(=O)[C@@H]1CCCN1C(=O)[C@H](CCCNC(=N)N)NC(=O)[C@H](CS)NC(=O)[C@H](Cc1c[nH]c2ccccc12)NC(=O)[C@H](CCCNC(=N)N)NC(=O)[C@@H](Cc1ccccc1)NC(=O)[C@H](Cc1c[nH]cn1)NC(=O)[C@H](CCC(=O)O)NC(=O)[C@H](CS)NC(=O)[C@H](CS)NC(=O)CNC(=O)[C@@H]1CC(=O)N[C@@H](CCCNC(=N)N)C(=O)NCC(=O)N[C@@H](CC(=O)O)C(=O)N[C@H](Cc2ccc(O)cc2)C(=O)N1)C(N)=O [technetium-99m labelled]	–	–	C57 mouse, female, B16/F1 melanoma, brain	intravenous, 0.037 MBq, 2 h	–	tissue uptake	0.07 ± 0.02 %ID/g
Cc1nn(-c2ccc(S(=O)(=O)N[C@@H](CO)CC(C)C)cc2)c2nn3nnnc3nc12	PC-3	AO/EB staining	–	2 µM, 24 h	–	necrotic cells	82 ± 2.82%
N#Cc1ccc(-c2ccc(-c3cccs3)o2)nc1	Salmonella typhimurium	liquid broth OD	TA1535	25 µM, 15 h	relative to: growth	viability	130 ± 9.3%
CCCC[C@H](NC(=O)CNC(=O)CNC(=O)CN1CCN(CC(=O)O)CCN(CC(=O)O)CCN(CC(=O)O)CC1)C(=O)N[C@H]1CC(=O)NCCCC[C@@H](C(N)=O)NC(=O)[C@H](Cc2c[nH]c3ccccc23)NC(=O)[C@H](CCCNC(=N)N)NC(=O)[C@@H](Cc2ccccc2)NC(=O)[C@H](Cc2c[nH]cn2)NC1=O [copper-64 labelled]	–	–	C57 mouse female B16/F1 melanoma, intestines	intravenous, 0.037 MBq, 24 h	–	tissue uptake	6.63 ± 0.51 %ID
CC(C)[C@H](NC(=O)[C@@H]1CCCN1C(=O)[C@H](CCCNC(=N)N)NC(=O)[C@H](CS)NC(=O)[C@H](Cc1c[nH]c2ccccc12)NC(=O)[C@H](CCCNC(=N)N)NC(=O)[C@@H](Cc1ccccc1)NC(=O)[C@H](Cc1c[nH]cn1)NC(=O)[C@H](CCC(=O)O)NC(=O)[C@H](CS)NC(=O)[C@H](CS)NC(=O)[C@@H]1CC(=O)N[C@@H](CCCNC(=N)N)C(=O)NCC(=O)N[C@@H](CC(=O)O)C(=O)N[C@H](Cc2ccc(O)cc2)C(=O)N1)C(N)=O [technetium-99m labelled]	–	–	C57 mouse, female, B16/F1 melanoma, bone	intravenous, 0.037 MBq, 0.5 h	–	tissue uptake	3.03 ± 0.97 %ID/g
NC12CNCCNCC(NCc3ccc(CNC(=O)CCCC(=O)NCc4ccc(-c5nncnn5)cc4)cc3)(CNCCNC1)CNCCNC2.[64Cu+2]	–	biodistribution	healthy athymic nude mice, kidneys	1 h p.i.	–	tissue uptake	2.3 ± 0.4 %ID/g
Cn1c(=O)oc2ccc(-c3ccc(CC(C#N)NC(=O)C4CNCCCO4)c(F)c3)cc21 (stereo not shown)	–	–	human, plasma	40 mg once daily, day 28, geometric mean	–	AUC(0-inf)	8810 ng·h/mL
O=C(O)C1CN(Cc2ccc(-c3noc(-c4ccc(OCC[18F])c(C(F)(F)F)c4)n3)cc2)C1	–	–	Sprague-Dawley rat, male, normal, thymus	iv, 60 min	–	tissue uptake	0.161 ± 0.007 %ID/g

Some of these lines once more:
SMILES	target or system	test	system	setting	scale	endpoint	value
CCN(CC)c1ccc2c(-c3ccccc3C(=O)OCCOCCOCC[18F])c3ccc(=[N+](CC)CC)cc-3oc2c1	–	–	rat, skin	60 min	–	tissue uptake	0.24 ± 0.03 %ID/g
CCCC[C@@H]1NC(=O)[C@@H](NC(=O)[C@H](CCC(=O)O)NC(=O)CNC(=O)CN2CCN(CC(=O)O)CCN(CC(=O)O)CCN(CC(=O)O)CC2)CCCCNC(=O)C[C@@H](C(N)=O)NC(=O)[C@H](C(C)C)NC(=O)[C@@H]2CCCN2C(=O)[C@H](CCCNC(=N)N)NC(=O)CNC(=O)[C@H](Cc2c[nH]c3ccccc23)NC(=O)[C@H](CCCNC(=N)N)NC(=O)[C@@H](Cc2ccccc2)NC(=O)[C@H](Cc2c[nH]cn2)NC(=O)[C@H](CCC(=O)O)NC1=O [gallium-67 labelled]	–	–	C57 mice with B16/F1 melanoma, lung	intravenous, 24 h	–	tissue uptake	0.1 ± 0.06 %ID/g
